Assay results gathered from unrelated publications.
Lines come from different studies, so protocols differ. ± marks the error that the study gave. Values after ≈ are worked out from the molar mass of the structure shown.

`CCCc1nc2c(=O)n(O)c(=O)[nH]c2s1` — result for “root length inhibition”: 75% (Brassica rapa; 100 mg/mL, 72 h).
The EC50 of `CC1(C)OB(c2cccc(CNS(=O)(=O)c3cc(C(=O)Nc4cc(F)c(F)c(F)c4)ccc3F)c2)OC1(C)C` is reported as 500 ± 70 nM (hepatitis B virus; viral replication, qPCR, refers to: intracellular core DNA; HepAD38 cells; 6 days).
With `Cc1cc(OC(C)C)ccc1C(=O)C(C)(C)NC(=O)c1sccc1C` the EC50 was 0.19 µg/mL (Monilinia mali; mycelial growth; PSA medium; 20 °C, suspension concentrate 400 g/L).
The MBC of `CN[C@H](CC(C)C)C(=O)N[C@H]1C(=O)N[C@@H](CC(N)=O)C(=O)N[C@H]2C(=O)N[C@H]3C(=O)N[C@H](C(=O)N[C@H](C(=O)O)c4cc(O)cc(O)c4-c4cc3ccc4O)[C@H](O)c3ccc(c(Cl)c3)Oc3cc2cc(c3O[C@@H]2O[C@H](CO)[C@@H](O)[C@H](O)[C@H]2O[C@H]2C[C@](C)(N)[C@H](O)[C@H](C)O2)Oc2ccc(cc2Cl)[C@H]1O` is reported as 8 µg/mL (≈ 5.52 µM) (Streptococcus pyogenes; erythromycin-sensitive, 21 strains).
For `Cc1cc(C)c2sc(NC(=O)c3cc4ccccc4o3)nc2n1`, the selectivity index was > 5.3 (Zika virus; cytopathic effect; Vero 76, MR766; baseline: CC50 over EC50).
With `CC(=O)NC[C@H]1CN(c2ccc(N3CCOCC3)c(F)c2)C(=O)O1` the MIC50 was 2 µg/mL (≈ 5.93 µM) (Staphylococcus epidermidis).
`Cc1nc2[nH]c(=O)n(O)c(=O)c2s1` — result for “root length inhibition”: 70% (Brassica rapa; 10 mg/mL, 72 h).
`C=C[C@]1(C)C[C@@H](OC(=O)CS[C@@H]2C[C@H]3CC[C@@H](C2)N3C)[C@]2(C)[C@H](C)CC[C@]3(CCC(=O)[C@H]32)[C@@H](C)[C@@H]1O` gave an MIC50 of > 128 µg/mL (Enterococcus faecalis; agar dilution; vancomycin-intermediate; 20 isolates).
`CCc1nc2[nH]c(=O)n(O)c(=O)c2s1` — result for “root length inhibition”: 97% (Brassica rapa; 100 mg/mL, 72 h).

Excerpt of the above:
With `Cc1cc(OC(C)C)ccc1C(=O)C(C)(C)NC(=O)c1sccc1C` the EC50 was 0.19 µg/mL (Monilinia mali; mycelial growth; PSA medium; 20 °C, suspension concentrate 400 g/L).
